Measurements from different studies.
A part holds a random share of what one study measured. Substitutions count along the parent as printed.

Set 1 — target: CCNA1, cyclin fold, Cln2 fusion (human); method: yeast growth competition, sequencing; matrix: yeast; setting: weak parent motif; relative to: not given; reading: higher = stronger binding
Parent: PKN2 docking peptide (human); VSAVQKLDFSDTM; partner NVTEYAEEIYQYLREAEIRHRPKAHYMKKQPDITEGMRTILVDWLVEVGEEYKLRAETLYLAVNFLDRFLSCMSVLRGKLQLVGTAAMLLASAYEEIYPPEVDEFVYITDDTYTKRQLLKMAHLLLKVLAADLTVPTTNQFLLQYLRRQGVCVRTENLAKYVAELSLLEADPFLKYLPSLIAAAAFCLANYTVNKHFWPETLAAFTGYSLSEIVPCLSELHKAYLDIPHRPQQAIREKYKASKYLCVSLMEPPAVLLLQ
| Substitution | normalised enrichment score |
| --- | --- |
| VSAVQKLDFSDTF [M13F] | 0.0985 |
| CSAVQKLDFSDTM [V1C] | 0.151 |
| VSAVQKLDFSDTP [M13P] | -0.0826 |
| VSAVQKLDFSATM [D11A] | 0.268 |
| VSAVQKPDFSDTM [L7P] | 0.0931 |
| VSADQKLDFSDTM [V4D] | 0.213 |

Set 2 — method: universal PBM; form: double-stranded DNA, one strand shown; matrix: in vitro; tested at: 600 nM; reading: higher = stronger binding
Target: Sal-like protein 4, full length isoform A (SALL4, Homo sapiens, UniProt Q9UJQ4, residues 1-1053)
Sequence of UniProt Q9UJQ4 (whole entry, looked up): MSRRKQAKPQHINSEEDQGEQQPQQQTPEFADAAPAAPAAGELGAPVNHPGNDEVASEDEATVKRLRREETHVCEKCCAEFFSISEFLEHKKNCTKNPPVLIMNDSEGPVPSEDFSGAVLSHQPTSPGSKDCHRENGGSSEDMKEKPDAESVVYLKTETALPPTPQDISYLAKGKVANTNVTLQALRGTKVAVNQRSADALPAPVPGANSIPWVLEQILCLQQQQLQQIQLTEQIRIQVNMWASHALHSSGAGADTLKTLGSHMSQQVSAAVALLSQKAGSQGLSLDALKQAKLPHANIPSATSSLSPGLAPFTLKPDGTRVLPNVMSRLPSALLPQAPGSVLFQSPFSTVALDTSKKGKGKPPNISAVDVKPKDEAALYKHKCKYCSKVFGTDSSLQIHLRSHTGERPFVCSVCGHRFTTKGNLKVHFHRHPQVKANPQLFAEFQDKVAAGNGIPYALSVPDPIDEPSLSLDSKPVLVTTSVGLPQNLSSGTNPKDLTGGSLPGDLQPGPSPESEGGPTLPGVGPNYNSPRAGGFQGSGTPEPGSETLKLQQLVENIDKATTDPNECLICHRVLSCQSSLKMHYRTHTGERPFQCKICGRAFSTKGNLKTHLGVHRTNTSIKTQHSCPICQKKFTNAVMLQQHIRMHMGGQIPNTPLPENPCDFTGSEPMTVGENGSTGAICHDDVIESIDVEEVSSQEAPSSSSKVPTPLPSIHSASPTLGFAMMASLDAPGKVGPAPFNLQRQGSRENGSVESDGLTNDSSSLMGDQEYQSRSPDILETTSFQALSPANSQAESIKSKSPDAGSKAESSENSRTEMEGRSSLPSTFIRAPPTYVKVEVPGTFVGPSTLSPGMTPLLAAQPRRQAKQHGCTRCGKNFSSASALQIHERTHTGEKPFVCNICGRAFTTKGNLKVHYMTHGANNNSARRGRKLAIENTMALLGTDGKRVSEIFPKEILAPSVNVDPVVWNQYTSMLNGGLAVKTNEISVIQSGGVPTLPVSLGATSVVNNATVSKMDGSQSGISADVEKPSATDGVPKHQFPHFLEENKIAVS
Setting: 8-mer, flanks averaged, mean of replicates
| Sequence | E-score |
| --- | --- |
| ACCAGACT | -0.134 |
| GCTACAAC | -0.144 |
| AAGTACCG | 0.0179 |
| AGTAGCGG | -0.15 |
| GAATAGCA | 0.142 |
| GGGGAGTA | -0.0675 |
| ATCTTCCC | -0.027 |
| CCGGTTCC | -0.379 |

Set 3 — method: RNA Bind-n-Seq; form: RNA; matrix: in vitro; tested at: 100 nM; relative to: input RNA pool; reading: higher = stronger binding
Target: RING finger protein unkempt homolog, zinc fingers 1-6, SBP tag (UNK, Homo sapiens, UniProt Q9C0B0, residues 30-357)
Sequence of UniProt Q9C0B0 (30-357, looked up): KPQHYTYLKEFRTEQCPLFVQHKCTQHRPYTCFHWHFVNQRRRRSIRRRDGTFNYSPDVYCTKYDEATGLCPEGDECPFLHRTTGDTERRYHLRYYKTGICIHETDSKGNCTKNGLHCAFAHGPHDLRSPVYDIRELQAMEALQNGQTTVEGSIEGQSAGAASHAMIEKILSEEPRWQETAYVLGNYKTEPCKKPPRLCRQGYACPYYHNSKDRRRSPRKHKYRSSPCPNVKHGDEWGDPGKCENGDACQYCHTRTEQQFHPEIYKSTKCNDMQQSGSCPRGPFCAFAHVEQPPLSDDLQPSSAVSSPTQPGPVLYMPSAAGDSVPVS
Setting: RNA with constant flanks, vertebrate orthologous sites, ends assumed
| Sequence | bound/input enrichment [ratio] |
| --- | --- |
| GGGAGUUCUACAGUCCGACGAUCUUUGAGGGAGAGAUUUCUGUGCUUUCUCAUUUAAUUUACUCUUUUUAAGAUAUUCCAACCUAGAGUUUUUGAUGGAACUGAUAUAUUGACAGUUCUCACCUAAGUCCUUUUAUAAAGAAUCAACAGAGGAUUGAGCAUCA | 0.835 |
| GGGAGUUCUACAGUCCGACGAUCUCAGGUGUCCCCAUGGGGCACUGUUGGCCCCUUAGCAUCGUUUGAUUUGUGACCUUGACAUAAUAGAUAGGCUUGUGAUUUUUUUAAUUUAAAGAUAUUAAAACUUAAUUCACUAAAAUUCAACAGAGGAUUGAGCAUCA | 0.486 |
| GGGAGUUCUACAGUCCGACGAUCUGACCACUCACUGUUAUGUCUGGAUAUCUGUAAACCUUUUUUUUUUUUUUUUUGGUUCUUAGUCCUUUUUCUUGUAUAAUUGAUGUUCUCUAAAAUUGUUAAUGUAUCACAGGGCUGACACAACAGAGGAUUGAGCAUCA | 0.627 |
| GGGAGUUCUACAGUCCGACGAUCUACCUCCUGAGCUUCUAGCUUUCAAGCUGUGGCUAUUUUUUUUUUUCUUUUUCUUUUCUUUAGAAUUUUUCCCCAUUUCCCACCUUCUCUUCUCCUGUUCCCAAGGUCUGACUCAUGGAUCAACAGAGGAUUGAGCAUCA | 3.19 |
| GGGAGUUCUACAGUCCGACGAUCGUCCCUCAGUGACAGUAUGCCGUCUGUAGCAGACUCCCACUCGAGUCAUUUUUCUGAAUUUAGCUGCUCAGACUUAGAGAGCAUGAGAACGUCCUGUAGUCACGGUUCCAGCGAUUGCCACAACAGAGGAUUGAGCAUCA | 0.675 |

Further values, each from its own experiment
| Substance | target | assay | system | conditions | scale | measurement | result |
| --- | --- | --- | --- | --- | --- | --- | --- |
| PhoQ, residues 284 288 289 292 302 303 SCCLKL | PhoP, residues 12 14 15 18 19 LHTVM (Escherichia coli, UniProt P23836) | Sort-seq, refers to: YFP reporter | E. coli | PhoQ-PhoP variant library, together with: 10 µM Mg2+ | relative to: high Mg2+ state, higher = stronger signaling | fold induction | 5.27 |

Excerpt of the above (set 2):
| Sequence | E-score |
| --- | --- |
| CCGGTTCC | -0.379 |
